Measured values gathered from unrelated publications.
Lines come from different studies, so protocols differ. “And” joins repeats or separate records; there may be more than shown. ± marks the error that the study gave.
Chain of UniProt P10632 (whole entry, looked up): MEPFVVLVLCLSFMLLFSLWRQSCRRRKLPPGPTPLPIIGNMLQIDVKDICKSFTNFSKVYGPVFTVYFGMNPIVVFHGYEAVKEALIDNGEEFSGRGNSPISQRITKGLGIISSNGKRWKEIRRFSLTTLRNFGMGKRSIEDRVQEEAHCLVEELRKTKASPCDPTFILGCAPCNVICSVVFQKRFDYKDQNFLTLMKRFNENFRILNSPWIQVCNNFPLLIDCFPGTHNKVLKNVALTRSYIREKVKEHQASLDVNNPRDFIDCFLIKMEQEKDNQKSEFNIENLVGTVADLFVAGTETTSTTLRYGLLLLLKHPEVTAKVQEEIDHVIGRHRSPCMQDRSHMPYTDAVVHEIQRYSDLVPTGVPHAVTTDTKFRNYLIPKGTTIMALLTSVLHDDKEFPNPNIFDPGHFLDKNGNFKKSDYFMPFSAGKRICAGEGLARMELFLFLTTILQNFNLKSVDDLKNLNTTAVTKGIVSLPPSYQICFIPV

SMILES	tested on	assay	test system	conditions	how to read	measurement	value
N#C[C@@H]1CC(F)(F)CN1C(=O)CNC(=O)c1ccnc2c(NC(=O)CCOCCOCCOCCOCCOCCOCCNC(=O)[C@H](CCCCNC(=O)CN3CCN(CC(=O)[O-])CCN(CC(=O)[O-])CCN(CC(=O)[O-])CC3)NC(=O)CCCc3ccc(I)cc3)cccc12.[177Lu+3]	U-87 MG tumour model		host not given, blood	24 h, tumour-bearing		tracer uptake	0.15 %ID/g
COc1cc(N2CCN(C(=O)CCOCCNC(=O)[C@@H]3CCCN3)CC2)ccc1Nc1ncc(Cl)c(Nc2ccccc2P(C)(C)=O)n1	NCI-H3122	CCK-8		0.1 µM, 48 h		viability	80% and 82% and 85%
CN1CCCNC(=O)c2cccc(c2)C(=O)NCCCN(C)CCCNc2cccc3c2C(=O)c2cccc(c2C3=O)NCCC1	Ca9-22	CCK-8		1.5 µM, 48 h	baseline: untreated	viability	23.2%
O=C(Nc1cnccc1-c1ccc([18F])nc1)c1ccnc(NC(=O)C2CC2)c1		ex vivo gamma counting	GSK-3β transgenic mice, early-stage, adipose tissue	intravenous, 120 min		mean SUV	0.076
COc1ccc2c(c1)C(C)(C)C(/C=C/C1=C(Oc3ccc(C(=O)NCCCCOc4cc(CN(Cc5ccccn5)Cc5ccccn5)cc(CN(Cc5ccccn5)Cc5ccccn5)c4)cc3)C(=C/C=C3/N(CCCCS(=O)(=O)[O-])c4ccc(OC)cc4C3(C)C)CCC1)=[N+]2CCCCS(=O)(=O)[O-].O=[N+]([O-])[O-].O=[N+]([O-])[O-].[99Tc+].[C-]#[O+].[C-]#[O+].[C-]#[O+].[Zn+2]	Staphylococcus aureus		BALB/c mice, bacterial myositis, urine and bladder	12 h		tissue uptake	1.59 %ID/g
CC(C)OCCOCc1ccc(OCC(O)CN(N=O)C(C)C)cc1 (centres unmarked)	Salmonella typhimurium	Ames test	TA1535	5 µg/plate, 30 % hamster S9	baseline: solvent control	revertant fold increase	1 fold
CCN(CC)CC#CCNc1ccnc2cc(Cl)ccc12	Salmonella typhimurium	mini-Ames test	TA100	500.0 µg/well, without S9		revertants	13 revertants/well and 23 revertants/well
CC(C)Cc1ccc(CN2CCCC(NC(=O)c3nn(C)c(=O)c4ccccc34)C2)cc1 (centres unmarked)	Trypanosoma cruzi	reporter mRNA translation, inhibitor, measured: Renilla luciferase mRNA	cell-free extract	concentration not given, test 2	baseline: positive over negative control	translation activity	88.8% and 92%
CNC(=O)C1CCCN(C(=O)C2CC3CCC2N3C(=O)[C@@H]2C[C@@H](O)CN2C(=O)NCc2cccc(Cl)c2F)C1 (mixture of isomers)	Cytochrome P450 2C8 (CYP2C8, Homo sapiens, UniProt P10632)	preincubation with NADPH	human	0.206 µM	baseline: negative control	remaining activity	58% and 73.2% and 102%
COCC1CN(C2CCN(c3cc(OC)c(Nc4ncc(Br)c(Nc5ccc6c(c5P(C)(C)=O)OCCO6)n4)cc3C)CC2)C1			EGFR-mutant NSCLC patients, plasma	oral, 30 mg single dose, geometric mean		AUC(0-inf)	4710 ng·h/mL
CCCC[C@H](NC(C)=O)C(=O)N[C@@H](CO)C(=O)N[C@H](C(=O)N1CCC[C@H]1C(=O)N[C@]1(C)CCCCCCC=CCCC[C@@](C)(C(=O)N[C@@H](Cc2ccccc2)C(=O)N[C@@H](CCCCN)C(=O)N[C@@H](CCCNC(=N)N)C(=O)N[C@@H](CC(C)C)C(=O)N[C@@H](CCC(N)=O)C(N)=O)NC(=O)[C@H](CCCNC(=N)N)NC(=O)[C@H](CCCC)NC(=O)[C@H](CC(C)C)NC(=O)[C@H](CCCNC(=N)N)NC(=O)[C@H](CCCNC(=N)N)NC(=O)[C@H](CCCNC(=N)N)NC1=O)[C@@H](C)O	proteinase K	LC-MS		25 µM, 430.6 min, pH 7.4		remaining peptide	50.9% and 47.6%
O=C1NC2(CC2)COc2ncc(F)cc2[C@H]2COCCN2c2ccn3ncc1c3n2	Salmonella typhimurium	Ames test	TA98	50 µg/plate, 48 h, together with: without S9		revertant colonies	12 ± 3 revertants/plate
COc1cccc(OC)c1-c1cc(C(=O)NC2(C(=O)O)C3CC4CC(C3)CC2C4)nn1-c1ccc(C(=O)N(C)CCCN(C)CCCN(C)C(=O)[C@H](CCCCNC(=O)[C@H](CC(C)C)NC(=O)C2OC2C(=O)O)NC(=O)CN2CCN(CC(=O)[O-])CCN(CC(=O)[O-])CCN(CC(=O)[O-])CC2)cc1C(C)C.[177Lu+3] (mixture of isomers)	HT-29 tumour model		host not given, pancreas	24 h, tumour-bearing		tracer uptake	0.36 %ID/g
CCCC[C@@H]1NC(=O)[C@@H](CC(C)C)NC(=O)[C@H](CCCCNC(=O)CN2CCN(CC(=O)O)CCN(CC(=O)O)CC2)NC(=O)[C@@H](CO)NC(=O)[C@H](Cc2c[nH]cn2)NC(=O)[C@@H](Cc2c[nH]c3ccccc23)NC1=O [copper-64 labelled]			Balb/c mice, pancreas	intravenous, dose not given		tissue uptake	0.15 ± 0.06 %ID/g
N#C[C@@H]1CC(F)(F)CN1C(=O)CNC(=O)c1ccnc2c(NC(=O)[C@@H](N)CCCCNC(=O)CCOCCOCCOCCOCCOCCOCCNC(=O)CN3CCN(CC(=O)[O-])CCN(CC(=O)[O-])CCN(CC(=O)[O-])CC3)cccc12.[177Lu+3]	U-87 MG tumour model		host not given, tumour	1 h, tumour-bearing		tracer uptake	8.93 %ID/g
O=C(Nc1ccon1)C12CC3CC(C1)CC(n1cnc([N+](=O)[O-])n1)(C3)C2	Trypanosoma cruzi	reporter mRNA translation, inhibitor, measured: Renilla luciferase mRNA	cell-free extract	concentration not given, test 3	baseline: positive over negative control	translation activity	100%
O=C1C2CC3CC1CC(C(=O)N1CCN(c4ccc([N+](=O)[O-])c5ncccc45)CC1)(C3)C2	Salmonella typhimurium	Ames test	TA1535	0.05 µg/well, with S9	baseline: vehicle	revertant fold increase	0.8
CC(C)(O)c1ncc([S@](N)(=O)=NC(=O)Nc2c3c(cc4c2CCC4)CCC3)s1		measured: Vascular disorders	healthy human volunteers	oral, 50 mg twice daily, 14 days, enteric-coated tablet		subjects with adverse events	29%
N#C[C@@H]1CC(F)(F)CN1C(=O)CNC(=O)c1ccnc2c(NC(=O)[C@H](CCCCNC(=O)CCOCCOCCOCCOCCOCCOCCNC(=O)CN3CCN(CC(=O)[O-])CCN(CC(=O)[O-])CCN(CC(=O)[O-])CC3)NC(=O)CCCc3ccc(I)cc3)cccc12.[177Lu+3]	U-87 MG tumour model		host not given, liver	4 h, tumour-bearing		tracer uptake	2.13 %ID/g
COc1cccc(OC)c1-c1cc(C(=O)NC2(C(=O)O)C3CC4CC(C3)CC2C4)nn1-c1ccc(C(=O)N(C)CCOCCOCCN(C)C(=O)[C@H](CCCCNC(=O)[C@H](CC(C)C)NC(=O)C2OC2C(=O)O)NC(=O)CN2CCN(CC(=O)[O-])CCN(CC(=O)[O-])CCN(CC(=O)[O-])CC2)cc1C(C)C.[177Lu+3] (mixture of isomers)	HT-29 tumour model		host not given, bone	4 h, tumour-bearing		tracer uptake	0.71 %ID/g

Repeated from above:
SMILES	tested on	assay	test system	conditions	how to read	measurement	value
O=C(Nc1ccon1)C12CC3CC(C1)CC(n1cnc([N+](=O)[O-])n1)(C3)C2	Trypanosoma cruzi	reporter mRNA translation, inhibitor, measured: Renilla luciferase mRNA	cell-free extract	concentration not given, test 3	baseline: positive over negative control	translation activity	100%
O=C1C2CC3CC1CC(C(=O)N1CCN(c4ccc([N+](=O)[O-])c5ncccc45)CC1)(C3)C2	Salmonella typhimurium	Ames test	TA1535	0.05 µg/well, with S9	baseline: vehicle	revertant fold increase	0.8
CC(C)(O)c1ncc([S@](N)(=O)=NC(=O)Nc2c3c(cc4c2CCC4)CCC3)s1		measured: Vascular disorders	healthy human volunteers	oral, 50 mg twice daily, 14 days, enteric-coated tablet		subjects with adverse events	29%
